Measured values gathered from unrelated publications.
Lines come from different studies, so protocols differ. ± gives the spread as reported.
UCHL1: Ubiquitin carboxyl-terminal hydrolase isozyme L1 (UCHL1, Homo sapiens, UniProt P09936)
UniProt P09936, sequence (whole entry, looked up): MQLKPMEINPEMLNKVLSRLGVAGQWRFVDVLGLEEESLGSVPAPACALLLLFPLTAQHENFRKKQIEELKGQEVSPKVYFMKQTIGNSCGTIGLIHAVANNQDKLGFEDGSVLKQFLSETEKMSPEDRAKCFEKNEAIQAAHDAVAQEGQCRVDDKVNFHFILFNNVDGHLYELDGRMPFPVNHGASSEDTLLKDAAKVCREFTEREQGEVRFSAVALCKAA
Histone acetyltransferase RTT109 with Vps75: Histone acetyltransferase RTT109, with Vps75 (Saccharomyces cerevisiae, UniProt Q07794)
UniProt Q07794, sequence (whole entry, looked up): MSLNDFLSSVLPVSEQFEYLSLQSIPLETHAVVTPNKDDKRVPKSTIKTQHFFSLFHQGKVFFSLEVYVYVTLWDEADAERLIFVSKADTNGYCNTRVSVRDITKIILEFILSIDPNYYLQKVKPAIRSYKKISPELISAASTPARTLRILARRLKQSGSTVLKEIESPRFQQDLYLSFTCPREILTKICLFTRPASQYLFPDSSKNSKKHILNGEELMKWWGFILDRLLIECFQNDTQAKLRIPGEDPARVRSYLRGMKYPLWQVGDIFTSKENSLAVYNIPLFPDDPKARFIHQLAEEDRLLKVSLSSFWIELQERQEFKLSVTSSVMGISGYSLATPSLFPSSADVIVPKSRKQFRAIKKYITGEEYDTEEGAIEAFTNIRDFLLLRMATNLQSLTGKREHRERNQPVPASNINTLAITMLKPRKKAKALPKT

SMILES	target or system	test	test system	conditions	scale	quantity	result
O=C1CCCCC1=C1Sc2nc3ccc(S(=O)(=O)N4CCCC4)cc3nc2S1	MCF7	flow cytometry	–	3.82 µM	relative to: untreated	S-phase cells	44.5%
CC(=O)c1nn(-c2ccc(C)cc2)/c(=N/N=C(\C)c2ccc(NC(=O)c3ccccc3)cc2)s1	MCF7	MTT	–	0.312 µM	–	cytotoxicity	95.6%
CNC(=S)NN=C(C)c1c(O)c2ccccc2oc1=O	MCF7	cell growth, MTT	–	–	relative to: IC50 BJ-1 over MCF7	selectivity index	> 7.35
CCC(=O)c1cccnc1Nc1cccc(C(F)(F)F)c1	MCF7	firefly luciferase reporter	–	25 µM, 6 h	relative to: vehicle	TEAD reporter activity	73.4 ± 6.5%
CCCCN1CCN(c2ccc3[nH]c(-c4ccc5[nH]c(-c6ccc(OCC)cc6)nc5c4)nc3c2)CC1	MCF7	SRB	–	10 µM, 48 h	–	growth percent	1.77%
O=C(O)c1cccnc1Nc1cccc(C(F)(F)F)c1	MCF7	firefly luciferase reporter	–	50 µM, 6 h	relative to: vehicle	TEAD reporter activity	144 ± 3.2%
CCOC(=O)c1nn(-c2cccc(Cl)c2)/c(=N/N=C(\C)c2ccc(NC(=O)c3ccccc3)cc2)s1	MCF7	MTT	–	2.5 µM	–	cytotoxicity	97.3%
C[C@@H]1CC[C@@H]([C@](O)(CNCc2ccccc2)COCc2ccccc2)[C@H](OCc2ccccc2)C1	MCF7	cell growth, inhibitor, MTT	–	72 h	–	IC50	1.99 µM
C=CC(=O)c1cccnc1Nc1cc(C)ccc1OC	MCF7	firefly luciferase reporter	–	50 µM, 6 h	relative to: vehicle	TEAD reporter activity	70.8 ± 6.5%
Cl.O=C(CCl)NC(c1ccccc1)C1CC1c1ccncc1 (stereo not shown)	UCHL1	covalent, intact protein LC-MS	–	12.5 µM	–	labelling	16.7%
CC(=O)c1nn(-c2ccccc2Cl)/c(=N/N=C(\C)c2ccc(NC(=O)c3ccccc3)cc2)s1	MCF7	MTT	–	0.078 µM	–	cytotoxicity	52.5%
C=CC(=O)c1cccnc1Nc1cc(C(F)(F)F)ccc1C	MCF7	firefly luciferase reporter	–	25 µM, 6 h	relative to: vehicle	TEAD reporter activity	91.8 ± 7.1%
Cn1cncc1C1=CN(c2ncnc3[nH]cnc23)CCS1	MCF7	–	–	–	–	GI50	30.9 µM
NNc1nc(-c2ccc(Cl)cc2)c2c(NC(=O)c3ccccc3)nnc-2[nH]1	MCF7	SRB	–	10 µM, NCI60 single-dose screen	relative to: untreated	cell growth	96.8%
O=c1ccn(Cc2cn(-c3c4ccccc4nc4ccccc34)nn2)c(=O)[nH]1	MCF7	NCI60 single-dose screen	–	10 µM	–	growth percentage	36.4%
OCc1ccc(Nc2ccc3c(Nc4cccc(C(F)(F)F)c4)ncnc3c2)cc1	MCF7	annexin V-PE/DAPI	–	concentration not given, 24 h	–	early apoptotic cells	12.8%
CC[C@@H](C)[C@H](NC(=O)c1cc(Cl)ccc1OCCN)C(=O)Nc1ccc([N+](=O)[O-])cc1Cl	MCF7	–	–	up to 10 µM, 72 h	–	antiproliferative activity	inactive
O=[N+]([O-])c1ccc(O)c(C=NNc2ccc(Br)cc2)c1	MCF7	Muse cell cycle	–	IC50, 24 h	–	cells in S phase	18.8%
COc1cnc2cccc(N3CCc4c(cc(Cn5ccnc5C)cc4-c4cn(C)nc4C(F)(F)F)C3=O)c2c1	MCF7	cell growth, inhibitor	–	120 h	–	EC50	10.5 µM
O=C(Nc1nnc2n3c(=S)[nH][nH]c3nc(-c3ccc(Cl)cc3)c1-2)c1ccccc1	MCF7	SRB	–	10 µM, NCI60 single-dose screen	relative to: untreated	cell growth	84.3%
O=[N+]([O-])c1cc(Br)c(O)c(C=NNc2ccccc2)c1	MCF7	ELISA	culture supernatant	IC50, with: LPS	relative to: LPS alone	IL-6 level	11.9%
CC(=O)c1nn(-c2ccc(Cl)cc2)/c(=N/N=C(\C)c2ccc(NC(=O)c3ccccc3)cc2)s1	MCF7	–	–	2.5 µM	–	viability	4.48%
O=[N+]([O-])c1c(Sc2ccc(Cl)cc2)ccc2nsnc12	Histone acetyltransferase RTT109 with Vps75	enzyme activity, inhibitor, HTS, CPM-based, dose response	–	–	–	IC50	> 125 µM
CC(=O)c1sc(=NN=C(C)c2c(O)c3ccccc3oc2=O)[nH]c1C	MCF7	cell growth, MTT	–	–	relative to: IC50 BJ-1 over MCF7	selectivity index	> 3.91
CCCN1CCN(c2ccc3[nH]c(-c4ccc5[nH]c(-c6ccc(OCC)c(OCC)c6)nc5c4)nc3c2)CC1	MCF7	SRB	–	10 µM, 48 h	–	growth percent	-59.5%

SMILES	target or system	test	test system	conditions	scale	quantity	result
CC(=NN=c1scc(C)n1C)c1c(O)c2ccccc2oc1=O	MCF7	cell growth, MTT	–	–	relative to: IC50 BJ-1 over MCF7	selectivity index	> 2.87
C=CC(=O)c1cccnc1Nc1cc(Cl)ccc1OC	MCF7	firefly luciferase reporter	–	50 µM, 6 h	relative to: vehicle	TEAD reporter activity	48.2 ± 4.6%
Cc1nc(NC(=O)N2CCC[C@H]2C(N)=O)sc1-c1ccnc(C(C)(C)C(F)(F)F)c1	MCF7	western blot, item: phospho-S6 Ser235/Ser236	–	2 h	–	IC50	0.267 µM
c1ccc(Nc2nc(-c3ccccc3)ns2)cc1	Histone acetyltransferase RTT109 with Vps75	enzyme activity, inhibitor, HTS, CPM-based, dose response	–	–	–	IC50	> 125 µM
CCOC(=O)c1nn(-c2cccc(Cl)c2)/c(=N/N=C(\C)c2ccc(NC(=O)c3ccc(Cl)cc3)cc2)s1	MCF7	MTT	–	2.5 µM	–	cytotoxicity	96.5%
O=C1NC(c2ccccc2)(c2ccccc2)C(=O)N1Cc1cn(-c2cc3ccccc3oc2=O)nn1	MCF7	NCI60 single-dose screen	–	10 µM	–	growth percentage	91.4%
C[C@H](Nc1ccc2c(c1)OCCn1cc(N3C(=O)OC[C@H]3C(F)F)nc1-2)C(N)=O	MCF7	cell growth, CellTiter-Glo	–	120 h	–	Hill coefficient GR curve	1
O=C(Nc1nnc2[nH]c(=S)[nH]c(-c3ccc(Cl)cc3)c1-2)c1ccccc1	MCF7	SRB	–	10 µM, NCI60 single-dose screen	relative to: untreated	cell growth	91.5%
CN(C)C(=S)[N-]N=C(c1ccccn1)c1ccccn1.[O]=[V+]=[O]	MCF7	MTT	–	48 h	relative to: IC50 MCF-10A over IC50 MCF7	selectivity ratio	> 20
CC(=NN=C1SC(C)C(=O)N1C)c1c(O)c2ccccc2oc1=O (stereo not shown)	MCF7	cell growth, MTT	–	–	relative to: IC50 BJ-1 over MCF7	selectivity index	> 3.83
C=CC(=O)c1cccnc1Nc1cc(NC(C)=O)ccc1OC	MCF7	firefly luciferase reporter	–	100 µM, 6 h	relative to: vehicle	TEAD reporter activity	6.2 ± 1.2%
O=C(Cc1ccccc1)Nc1nnc(CCSCCc2nnc(NC(=O)Cc3ccccc3)s2)s1	MCF7	cell proliferation, inhibitor, cell counting	–	144 h	–	EC50	~20 µM
CC(=O)Nc1ccc(/C(C)=N/N=c2\sc(C(C)=O)nn2-c2ccc(C)cc2)cc1	MCF7	MTT	–	5 µM	–	cytotoxicity	78.8%
CC(=NN=c1scc(-c2ccccc2)n1C)c1c(O)c2ccccc2oc1=O	MCF7	cell growth, MTT	–	–	relative to: IC50 BJ-1 over MCF7	selectivity index	> 2.89
N#CC(=Cc1cc(F)ccc1F)C(=O)NC1CCCCC1	UCHL1	covalent, intact protein LC-MS	–	12.5 µM	–	labelling	27.2%
C=CC(=O)c1cccnc1Nc1cc(NC(=O)CCCCCC)ccc1OC	MCF7	firefly luciferase reporter	–	50 µM, 6 h	relative to: vehicle	TEAD reporter activity	37.5 ± 3.8%
C=C1CN(S(=O)(=O)c2ccc(OC)cc2)CCCN(CC2CCCCC2)CCCN(S(=O)(=O)c2ccc(N(C)C)cc2)C1.Cl	MCF7	–	–	1 µM, 48 h, with: progranulin 1 µg/mL	–	mammosphere formation	inhibited
COc1ccc(-n2nc(C(C)=O)s/c2=N\N=C(/C)c2ccc(NC(=O)c3ccccc3)cc2)cc1	MCF7	–	–	10 µM	–	viability	2.46%
CC/C(=C(\c1ccccc1)c1ccc(OCCN(C)C)cc1)c1ccccc1	MCF7	RNA-seq, item: SSPO mRNA	–	1 µM, 24 h, E2-suppressed gene	relative to: DMSO vehicle	log2 fold change	-1.05
C=CC(=O)c1cccnc1Nc1cc(F)ccc1OC	MCF7	firefly luciferase reporter	–	100 µM, 6 h	relative to: vehicle	TEAD reporter activity	4.1 ± 0.4%
CC(C)(C)OC(=O)N1CCC(Oc2ccc(Cl)cc2C(=O)N[C@@H](Cc2ccccc2)C(=O)Nc2cc(C(F)(F)F)cc(C(F)(F)F)c2)CC1	MCF7	–	–	up to 10 µM, 72 h	–	antiproliferative activity	inactive
COc1cccc2c1C(=O)c1c(O)c3c(c(O)c1C2=O)C[C@@](O)(C(=O)CO)C[C@@H]3O[C@H]1C[C@H](N)[C@H](O)[C@H](C)O1	MCF7	annexin V/PI	–	concentration not given, 72 h, at IC50	–	necrotic cells	2.46%
CC(=O)c1nn(-c2ccc(Cl)cc2)/c(=N/N=C(\C)c2ccc(NC(=O)c3ccc(Cl)cc3)cc2)s1	MCF7	–	–	1.25 µM	–	toxicity	0.733%
COc1cccc2c1C(=O)c1c(O)c3c(c(O)c1C2=O)C[C@@](O)(C(=O)CO)C[C@@H]3O[C@H]1C[C@H](N)[C@H](O)[C@H](C)O1	MCF7	MTT	–	100 µM, 24 h	–	growth inhibition	58.2 ± 0.69%

Repeated from above:
SMILES	target or system	test	test system	conditions	scale	quantity	result
O=[N+]([O-])c1ccc(O)c(C=NNc2ccc(Br)cc2)c1	MCF7	Muse cell cycle	–	IC50, 24 h	–	cells in S phase	18.8%
COc1cnc2cccc(N3CCc4c(cc(Cn5ccnc5C)cc4-c4cn(C)nc4C(F)(F)F)C3=O)c2c1	MCF7	cell growth, inhibitor	–	120 h	–	EC50	10.5 µM
O=C(Nc1nnc2n3c(=S)[nH][nH]c3nc(-c3ccc(Cl)cc3)c1-2)c1ccccc1	MCF7	SRB	–	10 µM, NCI60 single-dose screen	relative to: untreated	cell growth	84.3%
O=[N+]([O-])c1cc(Br)c(O)c(C=NNc2ccccc2)c1	MCF7	ELISA	culture supernatant	IC50, with: LPS	relative to: LPS alone	IL-6 level	11.9%
CC(=O)c1nn(-c2ccc(Cl)cc2)/c(=N/N=C(\C)c2ccc(NC(=O)c3ccccc3)cc2)s1	MCF7	–	–	2.5 µM	–	viability	4.48%
